Measured values of several laboratories.
Each numbered part is a random draw from the data of one study; scales do not carry over between parts.

Block 1
Target: RING finger protein unkempt homolog, zinc fingers 1-6, GST-SBP tag (UNK, Homo sapiens, UniProt Q9C0B0, residues 30-357)
Chain of UniProt Q9C0B0 (30-357, looked up): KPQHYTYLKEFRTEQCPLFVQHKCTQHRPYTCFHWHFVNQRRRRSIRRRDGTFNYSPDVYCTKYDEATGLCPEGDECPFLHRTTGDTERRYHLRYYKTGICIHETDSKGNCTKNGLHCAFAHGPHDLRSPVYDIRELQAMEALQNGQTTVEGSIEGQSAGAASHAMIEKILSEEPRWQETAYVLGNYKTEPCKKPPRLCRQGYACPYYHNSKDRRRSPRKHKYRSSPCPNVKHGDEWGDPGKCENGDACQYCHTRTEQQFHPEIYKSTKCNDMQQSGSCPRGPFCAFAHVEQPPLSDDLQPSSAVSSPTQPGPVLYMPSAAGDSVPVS
Technique: RNA Bind-n-Seq
Form: RNA
Matrix: in vitro
Concentration: not given
Setting: RNA with constant flanks, ends assumed
Reference: input RNA pool
Reading: higher = stronger binding
All sequences stand within: GGGAGUUCUACAGUCCGACGAUC … CAACAGAGGAUUGAGCAUCA
Oligonucleotide | bound/input enrichment
UACUACUAUGAUGGUGAUAUUGGCAAUUAUUAUUAUGGCCAGGGUCAUCCCAUGAAGCCUCACCGAAUCCGGAUGACUCAUAACUUGCUGCUAAAUUAUGGUUUAUACCGAAAAAUGGAA | 0.155 ratio
GCAGAUGCAGUAGGCGUAACUGUUGUGCUAAUUACUUGUACCUAUCGAGGACAAGAAUUUAUCCGAGUUGGCUAUUAUGUAAAUAAUGAAUAUACUGAGACAGAAUUAAGGGAAAAUCCA | 0.396 ratio
CCAAGAAUUCCAAACAUGCCUGACAAUCUUGUCCCCUUAUUGUAAUAAAGAGGGAUACCAUCAGUCCCGAUUUUAUUGAGAAUCCUUAAGAUUUAAAGCAUAGCUGUGGAUGUGGUGAAG | 0.304 ratio
AUAAGUUAUAAUUUCUGUUCACUUUGUAUUUGUUCAGUAUGCAAAGUGUGUCACCCUUUCCCGCUGAAUUCAAUUCCCACGUAGACUCUUAUUUUAUAGGACGAAUGCCAAAUUGCAGCU | 9.25 ratio
AAAACCUGGUAUGGAGUCCCAGGGUAUGCUGCUGAGCAGCUAGAAAAUGUAAUGAAGAAACCCGCUCCAGAACUCUUUGUGUCCCAGCCGGAUCUCCUCCAUCAGCUUGUGACCAUCAUG | 0.508 ratio
ACCAUAAUUCCUCUUAAGCAUAUGACUAAUUUAUUUCUUAUUCAUUUCCAUUUCAGCAUUCCGUUCUUUAUUUUUAUUAUGGGGCUAGUUCAGAACUGGAGUGGCUGUAUAGCAGUGUAG | 8.88 ratio
AGUAGAGAGAUAACAAAAGCUGCUCAGAGUCUCAAUGAACUUGAUUAUCUUUCUCAAGGAACCGAUCUUUCUGGAAUAGAAGUAAUAGAGAAUGAUCUACUCUUUAUUGCAAGAGCUCGA | 0.178 ratio
UCUCUUGCUACUUGCCAGUUAUCUGAGCCAUUGUUGUGGUUUAUCUUGAGAGUGUUGGAUACCCGUGAUGCAUUGAAAGCUUUCCAUGAUAUGGGUGGAGUUCAGCUCAUAUGCAAUAAU | 0.132 ratio
AUUUUCUUACUGGCUAGAGUUCUUGGUGGAGAAGUUGCAUAUGGCCAAGUUCUUGGAGUUACCGGAUAUUCAUUACUUCCUCUCAUUGUAAUAGCCCCUAUACUUUUGGUGGUUGGAUCU | 0.285 ratio
GACUCUAAGCUGACAAGACUCUUGCAGGAUUCCCUUGGGGGUAACAGCCAAACCAUCAUGACCGCAUGCGUCAGCCCUUCAGACAGGGAUUUCAUGGAGACGUUAAACACUCUGAAGUAC | 0.198 ratio
UGCUCUUACUUGAUUUGCCAAAUGCCUCCUGCUUCUCGUUAUAGGACUGAGUGAGGUCCUCACCGCUCUGUGCUCUGGGCAGCUCUGAGCUCUCAGCCCUGUUGCUUUCAAUGUCAGUCA | 0.329 ratio

Block 2
Target: Sal-like protein 4, full length isoform B (SALL4, Homo sapiens, UniProt Q9UJQ4-2, residues 1-616)
Technique: universal PBM
Form: double-stranded DNA, one strand shown
Matrix: in vitro
Concentration: not given
Setting: 8-mer, flanks averaged, mean of replicates
Reading: higher = stronger binding
Oligonucleotide | E-score
GGTTTGCA | -0.0978
ACAAGTCG | -0.0656
ACTCCGAA | -0.242
GTCGTGAA | -0.185
CGCATCTC | -0.0234
AGGTCAGC | -0.0822
ACGGACCA | -0.086
ATGTATTG | 0.273
CTTTAATA | 0.39
GGCCACGA | -0.194
CGCACATA | -0.0877
ACTTACTA | 0.138
CCTTCAAC | -0.0708
GAGCGAAC | -0.172
CGCCCACA | -0.0753
ATCGGAAA | 0.178
AGGGAATG | 0.0221
GTAGTACA | 0.0717
CCGTTATA | 0.138
AGTTTCCA | 0.189
CACACAGA | -0.0679
GCCCACCA | -0.158
CGGATTGC | -0.112
GATTGATA | 0.266
CGAATAGA | -0.184

Block 3
Target: RNA binding protein fox-1 homolog 2, RRM domain, GST-SBP tag (RBFOX2, Homo sapiens, UniProt O43251-10, residues 100-194)
Technique: RNA Bind-n-Seq
Form: RNA
Matrix: in vitro
Concentration: 365 nM
Setting: natural RNA segment, single round, ends assumed
Reference: no-protein control
Reading: higher = stronger binding
All sequences stand within: GGGAGUUCUACAGUCCGACGAUC … UGGAAUUCUCGGGUGCCAA
Construct (chain): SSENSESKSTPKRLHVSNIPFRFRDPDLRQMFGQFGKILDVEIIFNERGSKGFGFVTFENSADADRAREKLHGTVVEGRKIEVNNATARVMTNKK
Oligonucleotide | RBNS enrichment (R)
CUACCAAUGAUUGUUUAGCUAGCAAGAAUGGUAAGACUGAGGCACCAGUGAGUGAGCAAACCACUUUAGGCCAGGAGAAUUACAUAUUCUCUAGAGGCCAAGCAUCUGAU | 0.417
UCACUUUACCAAUUAAGAGUUAGGCCAGAUAAGUGAAAUUUAACUUAAGGGCACACAGCUAAUAAGUAAUAGGCCUAAACUGGAUUUCCUUAUUCCAAAUCCUGUCUUUU | 0.421
CUCACCUCCUUCCCAUCCCGCCGAGCGUCCCAGACACUAACUCUUCCCAGAUGAUGACAAUGAAAUUAGUGCCUGUUUUCUUGCAAAUUUAGCACUGGGGACACUUAAAG | 0.824
CUGAAGCACUUACAUUUAGUUGUUGAAAGCAGUAGUAGCAGACCAAGCUAGCCCCUUAUCCAGCCAACACUGCACCUAACCCCAGGGAUUUGCUACCAGAGCAAACUCAG | 0.337
CAGAGAUUUGGGGGCUUCAUUAACAGGGACUAGCAGGGUGUUUUUCAAACCAUCCCGGUGGCUGGGAUGCAAGCUCAAGUUUGAGAACCACUGGUUUUGUCCUGGUGUUU | 0.615
AGAUUUCUGAUUUUAUGUAAAAUUUUGCCUAAUACAUUAAAGCAGUCACUUUUCCUGUGCUGUUUCAUUCACUGUCUCCGUCCCCUUUGUCCCCUAAGCAUCACCUGCCC | 0.619
CAACCUCCUGUGCAUUUAAUUAAAUAGGCCAAAUUUUUGCUGCUUAGGUCAUCUCAAGGCUGAUACUUGAGCUGUGUGCCCAGAGAUCAUGCAUUUAGAUUUAUAUUUUU | 1.25
CACUCCUACUUUAUGCCACAUUUCAGCCACACAUCUGCAUUAACCCACCUGAAACAUCCCAGCAGGCCCCUUGCUGCCAUGCCUUAUGGUUCCCAAUCAGCCAUUACCAU | 1.92
GUGGUACCCAAUGCCAGAAUGUAAGAGUUGCAAGUGAUUUUGUGCUGCUAUUCAUUAAAACUUGUAUUCCAGUCUUGCCAGCUUAAGGAGAUCAAGAUAUUAAGAGGUAU | 0.926
GGCCUCUCCUGGAACUCUGAACCUGCUGUGGAAGGAAUUGGCCAUGACCUUCACCUCUGGAGAGUAGGGUCUAUGGCGAGGGAAAAGGGUGUUCACCAUGAUAACCUAGU | 0.835
UGGUGUGGUUACAGGGUCCCCUGCCUGCCUCCAGCCUCCGUGUGCUCCAGGGUUGUGAGCAGAGCAGGAAGGUCAGGUGAGAGUGGCUGUAGGAGGUCCUCCAGCCCGGG | 1.61
UUGAGUUCUGUCUAUAGCCCAGCAGGCUGCCUGUUUAAAAUCCCAUCAUGAAUUUAACAGGCUGAUGUGAGAAUGAAAUAGAUAUUACUGGGGUUUUGUUGUUGUUUGUU | 0.83

Block 4
Target: Protein max, full length (MAX, Homo sapiens, UniProt P61244-2, residues 1-151)
Technique: protein-binding microarray
Form: double-stranded DNA, one strand shown
Matrix: in vitro
Concentration: not given
Setting: k-mer, scored over probes, only values ≥0.25
Reading: higher = stronger binding
Oligonucleotide | E-score
CGTGCGTA | 0.317
ATGCACGC | 0.42
ACTCGTGG | 0.396
ATGCTGCC | 0.314
CATGATGG | 0.264
CATGGAAA | 0.267
CACGGGTA | 0.337
CACGCCAA | 0.288
AAGCACGT | 0.445
ATGTGATG | 0.257
CACGCGTG | 0.467
ACGTGTAC | 0.399
ACGCATGG | 0.444
GTGCGCAC | 0.394
CATGGGTC | 0.313
AGCATGCG | 0.443
CTGTCCAC | 0.262
CGCGTGTC | 0.456
ACATGGAT | 0.283

Block 5
Target: Histone acetyltransferase KAT6A, winged helix 1, GST fusion (KAT6A, Homo sapiens, UniProt Q92794, residues 1-85)
Technique: protein binding microarray
Form: double-stranded DNA, one strand shown
Matrix: in vitro
Concentration: not given
Setting: 8-mer, flanks averaged, mean of 2 arrays, mostly near background
Reference: not given
Reading: higher = stronger binding
Target sequence (chain): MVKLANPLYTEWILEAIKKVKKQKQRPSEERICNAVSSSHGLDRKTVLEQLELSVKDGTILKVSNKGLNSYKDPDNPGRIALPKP
Oligonucleotide | E-score
ACCAAGTC | -0.171
GGCTATAA | 0.0049
AGTAGGCA | -0.23
GCTTACCC | -0.0483
ACTCTAAG | 0.0111
ATATTTGG | -0.271
GATTGTGA | -0.0765
TATTAGAA | -0.208
CGCTCGAC | 0.146
CACCGACG | 0.342
GGGAAAAA | 0.0209
CCAGCGAG | -0.107
AGACAATG | -0.153
CACGTTAG | -0.16
CCGCCATC | 0.13
TGTCGTAA | -0.0599
CGGGGAGC | 0.261
CGATGCCG | 0.37
ACAATACG | 0.11
CTAGCGTA | 0.2
CTTGTCCC | 0.191
AGAAGGTG | -0.273
GCATAGCA | -0.101
AGTGTCAT | -0.0699
CCTAGGGA | -0.198

For quick reference, copied from above (block 5):
Oligonucleotide | E-score
CACCGACG | 0.342
GGGAAAAA | 0.0209
CCAGCGAG | -0.107
AGACAATG | -0.153
CACGTTAG | -0.16
CCGCCATC | 0.13
TGTCGTAA | -0.0599
CGGGGAGC | 0.261
CGATGCCG | 0.37
ACAATACG | 0.11
CTAGCGTA | 0.2
CTTGTCCC | 0.191
AGAAGGTG | -0.273
GCATAGCA | -0.101
